Published values of several laboratories.
Compare with care: the assays were run in different laboratories.
UniProt Q15835, sequence (whole entry, looked up): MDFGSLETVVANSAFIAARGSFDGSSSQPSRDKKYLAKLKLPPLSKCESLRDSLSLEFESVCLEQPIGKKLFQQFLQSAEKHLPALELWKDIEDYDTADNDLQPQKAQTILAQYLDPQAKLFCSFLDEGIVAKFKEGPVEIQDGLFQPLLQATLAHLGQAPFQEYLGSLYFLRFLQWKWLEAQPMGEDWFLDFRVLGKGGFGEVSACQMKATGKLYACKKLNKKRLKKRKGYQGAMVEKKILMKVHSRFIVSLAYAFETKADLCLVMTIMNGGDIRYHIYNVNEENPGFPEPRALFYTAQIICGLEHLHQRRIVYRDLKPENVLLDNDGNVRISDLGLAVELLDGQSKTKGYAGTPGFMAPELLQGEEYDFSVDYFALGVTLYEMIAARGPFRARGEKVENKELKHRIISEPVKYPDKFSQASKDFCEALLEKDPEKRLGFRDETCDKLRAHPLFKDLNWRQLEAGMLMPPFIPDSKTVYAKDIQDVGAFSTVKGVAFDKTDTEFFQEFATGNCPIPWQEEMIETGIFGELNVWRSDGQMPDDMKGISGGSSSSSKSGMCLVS
UniProt Q8NG66, sequence (whole entry, looked up): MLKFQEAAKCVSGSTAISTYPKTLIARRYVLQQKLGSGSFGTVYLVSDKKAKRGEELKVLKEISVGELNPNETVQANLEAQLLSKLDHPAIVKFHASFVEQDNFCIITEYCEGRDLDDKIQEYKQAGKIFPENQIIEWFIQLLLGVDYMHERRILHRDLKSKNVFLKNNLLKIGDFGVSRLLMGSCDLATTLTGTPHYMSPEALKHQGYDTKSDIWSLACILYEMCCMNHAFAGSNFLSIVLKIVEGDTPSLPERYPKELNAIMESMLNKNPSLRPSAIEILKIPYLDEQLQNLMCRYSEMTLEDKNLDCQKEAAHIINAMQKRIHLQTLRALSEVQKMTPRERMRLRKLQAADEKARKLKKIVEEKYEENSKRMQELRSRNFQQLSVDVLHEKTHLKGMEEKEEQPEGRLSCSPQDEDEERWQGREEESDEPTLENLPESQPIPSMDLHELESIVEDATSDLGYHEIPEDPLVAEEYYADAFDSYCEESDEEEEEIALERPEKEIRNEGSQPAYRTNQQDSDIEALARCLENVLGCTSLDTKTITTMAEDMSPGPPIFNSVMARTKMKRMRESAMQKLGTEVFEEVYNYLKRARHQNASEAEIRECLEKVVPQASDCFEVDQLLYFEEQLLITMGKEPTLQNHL
UniProt Q02294, sequence (whole entry, looked up): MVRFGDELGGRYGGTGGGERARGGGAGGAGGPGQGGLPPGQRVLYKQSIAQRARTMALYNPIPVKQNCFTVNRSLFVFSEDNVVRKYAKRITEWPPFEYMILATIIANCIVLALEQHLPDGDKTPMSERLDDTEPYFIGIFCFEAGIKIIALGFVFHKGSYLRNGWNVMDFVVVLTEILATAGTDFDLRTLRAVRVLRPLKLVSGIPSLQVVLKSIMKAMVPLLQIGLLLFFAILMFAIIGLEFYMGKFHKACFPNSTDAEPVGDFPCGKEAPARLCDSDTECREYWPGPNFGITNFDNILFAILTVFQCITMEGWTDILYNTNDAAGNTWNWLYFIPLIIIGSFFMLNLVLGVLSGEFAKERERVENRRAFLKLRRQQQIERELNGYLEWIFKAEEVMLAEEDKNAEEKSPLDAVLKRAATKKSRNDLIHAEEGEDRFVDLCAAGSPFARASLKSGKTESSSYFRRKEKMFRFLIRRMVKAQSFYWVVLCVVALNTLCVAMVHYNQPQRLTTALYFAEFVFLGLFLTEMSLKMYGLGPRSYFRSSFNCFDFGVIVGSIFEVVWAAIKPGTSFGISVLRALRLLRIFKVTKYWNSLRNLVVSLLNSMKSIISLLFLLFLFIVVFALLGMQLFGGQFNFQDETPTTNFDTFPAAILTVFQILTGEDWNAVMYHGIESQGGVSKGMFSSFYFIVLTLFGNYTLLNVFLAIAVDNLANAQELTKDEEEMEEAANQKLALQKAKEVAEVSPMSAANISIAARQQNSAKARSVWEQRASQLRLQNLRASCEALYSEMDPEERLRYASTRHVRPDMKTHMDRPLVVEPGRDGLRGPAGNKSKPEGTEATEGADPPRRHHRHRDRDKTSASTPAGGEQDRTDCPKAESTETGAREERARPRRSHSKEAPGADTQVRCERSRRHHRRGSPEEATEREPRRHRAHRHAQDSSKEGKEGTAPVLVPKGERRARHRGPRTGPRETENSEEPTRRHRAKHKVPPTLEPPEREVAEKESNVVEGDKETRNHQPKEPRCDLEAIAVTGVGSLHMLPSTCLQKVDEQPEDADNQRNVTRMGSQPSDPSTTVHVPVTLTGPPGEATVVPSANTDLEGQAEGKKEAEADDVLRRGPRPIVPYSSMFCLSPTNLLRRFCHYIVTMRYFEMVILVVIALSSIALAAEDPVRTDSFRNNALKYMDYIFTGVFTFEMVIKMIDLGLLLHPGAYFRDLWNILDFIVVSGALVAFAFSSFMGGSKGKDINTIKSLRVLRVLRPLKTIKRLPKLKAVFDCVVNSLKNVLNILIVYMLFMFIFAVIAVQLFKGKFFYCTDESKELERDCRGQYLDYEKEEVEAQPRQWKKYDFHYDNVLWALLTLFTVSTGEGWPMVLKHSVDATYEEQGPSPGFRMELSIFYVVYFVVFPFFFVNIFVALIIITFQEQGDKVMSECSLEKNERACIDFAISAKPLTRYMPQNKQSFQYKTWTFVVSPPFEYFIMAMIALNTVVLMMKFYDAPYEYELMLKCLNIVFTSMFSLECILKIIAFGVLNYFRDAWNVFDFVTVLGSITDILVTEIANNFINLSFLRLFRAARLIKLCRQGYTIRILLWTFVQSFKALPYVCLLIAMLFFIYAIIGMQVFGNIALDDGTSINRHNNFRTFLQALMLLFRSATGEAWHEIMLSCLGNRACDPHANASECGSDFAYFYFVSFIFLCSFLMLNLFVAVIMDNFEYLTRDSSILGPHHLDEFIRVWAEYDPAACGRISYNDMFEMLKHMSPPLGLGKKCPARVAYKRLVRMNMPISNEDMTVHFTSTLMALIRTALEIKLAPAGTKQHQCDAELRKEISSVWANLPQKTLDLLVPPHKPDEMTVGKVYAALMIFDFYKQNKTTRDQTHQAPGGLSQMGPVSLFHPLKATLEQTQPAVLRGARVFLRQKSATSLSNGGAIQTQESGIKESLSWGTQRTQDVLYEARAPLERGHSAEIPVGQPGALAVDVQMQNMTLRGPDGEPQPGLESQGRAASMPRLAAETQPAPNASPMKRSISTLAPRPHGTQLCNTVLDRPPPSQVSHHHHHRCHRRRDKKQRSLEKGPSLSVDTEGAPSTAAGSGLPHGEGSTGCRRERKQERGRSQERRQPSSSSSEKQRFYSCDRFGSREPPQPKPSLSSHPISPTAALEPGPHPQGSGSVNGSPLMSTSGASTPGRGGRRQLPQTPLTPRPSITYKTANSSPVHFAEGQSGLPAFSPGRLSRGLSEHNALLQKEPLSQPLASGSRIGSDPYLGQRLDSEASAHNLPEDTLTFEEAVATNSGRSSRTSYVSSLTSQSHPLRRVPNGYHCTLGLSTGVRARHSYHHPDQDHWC
UniProt O60741, sequence (whole entry, looked up): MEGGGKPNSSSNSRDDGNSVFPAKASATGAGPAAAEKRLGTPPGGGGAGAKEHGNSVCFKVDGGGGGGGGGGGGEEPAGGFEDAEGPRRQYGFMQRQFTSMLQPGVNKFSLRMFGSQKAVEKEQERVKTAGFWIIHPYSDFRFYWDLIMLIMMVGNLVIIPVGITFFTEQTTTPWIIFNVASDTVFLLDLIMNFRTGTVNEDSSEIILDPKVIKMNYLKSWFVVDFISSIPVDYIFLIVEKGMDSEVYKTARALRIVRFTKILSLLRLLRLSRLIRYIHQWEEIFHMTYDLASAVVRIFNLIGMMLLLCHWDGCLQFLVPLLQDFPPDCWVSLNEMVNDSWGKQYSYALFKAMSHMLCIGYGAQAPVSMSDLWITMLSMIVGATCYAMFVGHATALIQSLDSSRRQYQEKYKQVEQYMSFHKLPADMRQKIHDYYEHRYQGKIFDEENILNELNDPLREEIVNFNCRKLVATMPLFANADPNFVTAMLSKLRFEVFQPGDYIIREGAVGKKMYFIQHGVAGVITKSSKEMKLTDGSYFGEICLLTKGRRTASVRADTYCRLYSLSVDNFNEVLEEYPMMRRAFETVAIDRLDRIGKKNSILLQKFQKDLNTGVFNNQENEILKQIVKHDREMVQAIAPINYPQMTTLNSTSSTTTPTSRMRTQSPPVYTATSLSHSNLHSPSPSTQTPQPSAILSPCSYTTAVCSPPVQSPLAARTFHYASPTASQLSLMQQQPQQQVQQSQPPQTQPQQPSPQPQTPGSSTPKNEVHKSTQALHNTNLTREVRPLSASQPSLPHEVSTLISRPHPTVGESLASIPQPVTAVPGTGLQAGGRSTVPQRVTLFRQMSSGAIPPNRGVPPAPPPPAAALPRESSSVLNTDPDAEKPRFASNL
UniProt P36894, sequence (whole entry, looked up): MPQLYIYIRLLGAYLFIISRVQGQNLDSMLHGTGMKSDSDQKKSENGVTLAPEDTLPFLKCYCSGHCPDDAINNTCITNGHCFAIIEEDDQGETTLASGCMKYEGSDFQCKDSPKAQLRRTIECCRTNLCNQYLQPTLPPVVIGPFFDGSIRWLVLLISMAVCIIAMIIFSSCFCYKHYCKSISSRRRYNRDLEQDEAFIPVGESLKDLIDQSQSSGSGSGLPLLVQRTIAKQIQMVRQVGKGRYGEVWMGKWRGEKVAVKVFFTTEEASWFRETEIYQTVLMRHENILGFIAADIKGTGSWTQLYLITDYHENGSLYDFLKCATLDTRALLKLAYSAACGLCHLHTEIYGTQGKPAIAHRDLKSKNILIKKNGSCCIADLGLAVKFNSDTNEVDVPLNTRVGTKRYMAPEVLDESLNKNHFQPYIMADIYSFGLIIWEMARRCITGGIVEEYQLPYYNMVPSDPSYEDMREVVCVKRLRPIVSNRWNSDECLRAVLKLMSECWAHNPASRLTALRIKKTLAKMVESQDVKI

CCN(CC)CCCC[C@H](NC(=O)[C@H](CC(C)C)NC(=O)[C@H](C)NC(=O)[C@H](Cc1ccccc1)NC(=O)c1ccc(C(C)(C)C)cc1)C(=O)N[C@@H](CO)C(=O)OC  ΔTm (PHIP, BD2 (Homo sapiens, UniProt Q8WWQ0); thermal stability, DSF; 25 µM): 0.64 °C
CC(C)CC(=O)OC[C@H]1O[C@@](C#N)(c2ccc3c(N)ncnn23)[C@H](O)[C@@H]1O  inhibition (Voltage-dependent N-type calcium channel subunit alpha-1B (Cacna1b, Rattus norvegicus, UniProt Q02294); cell-free assay; 20 µM): 1%
c1cncc([C@@H]2CCCN2)c1  inhibition (Sodium-dependent dopamine transporter (SLC6A3, Homo sapiens, UniProt Q01959); ligand displacement; 50 µM): 1.26%
Cc1nn(C)cc1-c1nc2c(N3CCN(Cc4ccc(Cl)cc4)CC3)c(Cl)cnc2[nH]1  remaining binding (Serine/threonine-protein kinase SIK3 (SIK3, Homo sapiens, UniProt Q9Y2K2); binding, competition with immobilised ligand; 1 µM): 100%
CC12CC3CC(C)(C1)CC(N)(C3)C2  inhibition (Potassium/sodium hyperpolarization-activated cyclic nucleotide-gated channel 1 (Homo sapiens, UniProt O60741); ion current, inhibitor; 30 µM): 15.1%
COc1ncccc1-c1cnn2ccc(N3CCN(C(=O)OC(C)C)CC3)nc12  remaining binding (Bone morphogenetic protein receptor type-1A (BMPR1A, Homo sapiens, UniProt P36894); binding, competition with immobilised ligand; 1 µM): 93%
[2H]c1c([2H])c([C@]2([2H])CCCN2C(=O)C(C)(C)Oc2ccc3cn[nH]c3c2)c([2H])c([2H])c1C([2H])([2H])[2H]  remaining binding (Serine/threonine-protein kinase Nek11 (NEK11, Homo sapiens, UniProt Q8NG66); binding, competition with immobilised ligand; 1 µM): 90%
Nc1ncc(-c2nc(N3CCOCC3)nc(N3CCOCC3)n2)c(C(F)F)n1  remaining binding (Rhodopsin kinase GRK1 (GRK1, Homo sapiens, UniProt Q15835); binding, competition with immobilised ligand; 10 µM): 86%

Repeated from above:
COc1ncccc1-c1cnn2ccc(N3CCN(C(=O)OC(C)C)CC3)nc12  remaining binding (Bone morphogenetic protein receptor type-1A (BMPR1A, Homo sapiens, UniProt P36894); binding, competition with immobilised ligand; 1 µM): 93%
